Measured values from different studies.
Lines come from different studies, so protocols differ. Several values in a cell are separate wells, animals, samples, runs or records. ± marks the error that the study gave.

| Structure (SMILES) | test | test system | setting | measurement | value |
| --- | --- | --- | --- | --- | --- |
| CCCCCOc1ccc(-c2ccc(-c3ccc(C(=O)N[C@H]4C[C@@H](O)[C@@H](OCC[N+](C)(C)C)NC(=O)[C@@H]5[C@@H](O)[C@@H](C)CN5C(=O)[C@H]([C@@H](C)O)NC(=O)[C@H]([C@H](O)[C@@H](O)c5ccc(O)cc5)NC(=O)[C@@H]5C[C@@H](O)CN5C(=O)[C@H]([C@@H](C)O)NC4=O)cc3)cc2)cc1 |  | adult patients not in ICU, plasma | intravenous, 400 mg loading dose, after first dose, arithmetic mean | Cmax | 18600 ng/mL |
| CC(C)[C@H](C(=O)O[C@H](C#N)c1cccc(Oc2ccccc2)c1)c1ccc(Cl)cc1 | item: CYP2C8 | human, age 5 years |  | enzyme contribution to clearance | 0.93% |
| Nc1nc2cc(-c3ccc4ncc(C(=O)N5CCOCC5)n4c3)ccc2o1 |  | advanced solid tumour patients | 21 days, once-daily dosing, range over | tolerable dose range | 100 to 150 mg |
| O=C(Nc1cnccc1Cl)N1CCN(Cc2ccc3c(c2)OC(F)(F)O3)CC1 |  | culture medium without cells | 100 nM, 0 h | concentration | 83.9 ± 1.4 nM |
| C[C@@H]1OC(=O)NN=C1c1ccc(-c2ccc(F)cc2)c(C(F)(F)F)c1 | phase I trial, item: Fatigue all grades | human patients | 5 mg loading then 0.25 mg daily | patients with adverse event | 0% |
| Cc1cccc(Cn2nc(C3CC3)c3c(NC(=O)c4cnc5cc(OCCN6CCN(C)CC6)ccn45)cccc32)n1 | CTCAE v4.03, item: abdominal pain | PD-1/PD-L1 inhibitor-refractory patients | oral, dose not given, with: pembrolizumab IV every 3 weeks | all-cause adverse events | 21.1% |
| CNC(=O)CC1C(=O)N(C2CCN(C3CCC(C(C)C)CC3)CC2)c2ccccc21 (centres unmarked) |  | conscious Sprague-Dawley rat | intravenous bolus, 100 nmol/kg | onset of sedation | ≤ 15 s |
| CCN1[C@@H](C(=O)NC23CCC(C(=O)O)(CC2)CC3)[C@H](c2cccc(Cl)c2F)[C@]2(C(=O)Nc3cc(Cl)ccc32)C12CCCCC2 |  | patients with advanced solid tumours | oral, 200 mg | Fatigue incidence | 50% |
| CC(C)(O)c1cc(Nc2cc(Oc3cn(C4CC4)nc3C3CCOCC3)ccn2)ccn1 | Fatigue | advanced cancer patients, grade 4 glioma expansion | oral, 50 mg twice daily, all causality any grade | treatment-emergent adverse events | 23% |
| [O-][S+]1CCc2nc(N3CCC(c4ncc(Cl)cn4)CC3)nc(NC3(CO)CCC3)c21 (centres unmarked) | item: Dizziness | healthy male humans | 12 mg twice daily | adverse event incidence | 0% |
| CO[C@H]1C[C@@H]2CC[C@@H](C)[C@@](O)(O2)C(=O)C(=O)N2CCCC[C@H]2C(=O)O[C@H]([C@H](C)C[C@@H]2CC[C@@H](OC(=O)NCCOCCOCCOCCOCCOCCOCCOCCOCCC(=O)N3CCc4cc(Cn5nc(-c6ccc7oc(N)nc7c6)c6c(N)ncnc65)ccc4C3)[C@H](OC)C2)C[C@@H](O)[C@H](C)/C=C(\C)[C@@H](O)[C@@H](OC)C(=O)[C@H](C)C[C@H](C)/C=C/C=C/C=C/1C | phase 1 dose escalation, item: fatigue | advanced solid tumour patients | intravenous, 8 mg weekly, any grade | TRAE incidence | 43.8% |
| CC[C@H](C)[C@H](NC(=O)[C@H](Cc1ccccc1)NC(=O)[C@H](CCC(=O)O)NC(=O)[C@H](CCCNC(=N)N)NC(=O)[C@H](C)NC(=O)[C@H](C)NC(=O)[C@H](CCC(N)=O)NC(=O)[C@H](CCC(=O)O)NC(=O)[C@H](CCC(=O)O)NC(=O)[C@H](CC(C)C)NC(=O)[C@H](Cc1ccc(O)cc1)NC(=O)[C@H](CO)NC(=O)[C@H](CO)NC(=O)[C@@H](NC(=O)[C@H](CC(=O)O)NC(=O)[C@H](CO)NC(=O)[C@@H](NC(=O)[C@H](Cc1ccccc1)NC(=O)[C@@H](NC(=O)CNC(=O)[C@H](CCC(=O)O)NC(=O)[C@H](C)NC(=O)CCc1cnc[nH]1)[C@@H](C)O)[C@@H](C)O)C(C)C)C(=O)N[C@@H](C)C(=O)N[C@@H](Cc1c[nH]c2ccccc12)C(=O)N[C@@H](CC(C)C)C(=O)N[C@H](C(=O)N[C@@H](CCCNC(=N)N)C(=O)NCC(=O)N[C@@H](CCCNC(=N)N)C(=O)N[C@@H](CCCCNC(=O)COCCOCCNC(=O)COCCOCCNC(=O)CC[C@H](NC(=O)CCCCCCCCCCCCCCCCC(=O)O)C(=O)O)C(=O)NCC(=O)NCC(=O)N[C@@H](CO)C(=O)N[C@@H](CCCCNC(=O)[C@H](CCCCNC(=O)[C@H](CCCCNc1c(NCCCCCN(O)C(=O)CCC(=O)NCCCCCN(O)C(=O)CCC(=O)NCCCCCN(O)C(C)=O)c(=O)c1=O)Nc1c(NCCCCCN(O)C(=O)CCC(=O)NCCCCCN(O)C(=O)CCC(=O)NCCCCCN(O)C(C)=O)c(=O)c1=O)NC(=O)[C@H](CCCCNc1c(NCCCCCN(O)C(=O)CCC(=O)NCCCCCN(O)C(=O)CCC(=O)NCCCCCN(O)C(C)=O)c(=O)c1=O)Nc1c(NCCCCCN(O)C(=O)CCC(=O)NCCCCCN(O)C(=O)CCC(=O)NCCCCCN(O)C(C)=O)c(=O)c1=O)C(=O)O)C(C)C [zirconium-89 labelled] | ex vivo gamma counting | Sprague-Dawley rat, male, heart | intravenous, 1 nmol, 24 h | tissue uptake | 0.33 %ID/g and 0.327 %ID/g and 0.298 %ID/g and 0.313 %ID/g and 0.321 %ID/g |
| O[C@H]1CCCN[C@@H]1CCCn1cnc2c(Cl)c(Cl)ccc21 |  | healthy humans, plasma | oral, 150 mg twice daily | AUCtau | 1270 ng·h/mL |
| COc1cc2c(Oc3ccc4[nH]c(C)cc4c3F)ccnc2cc1OCC1(N)CC1 |  | paediatric refractory sarcoma patients | 12 mg | grade 1-2 T-wave abnormality | 9.1% |

Some of these lines once more:
| Structure (SMILES) | test | test system | setting | measurement | value |
| --- | --- | --- | --- | --- | --- |
| CNC(=O)CC1C(=O)N(C2CCN(C3CCC(C(C)C)CC3)CC2)c2ccccc21 (centres unmarked) |  | conscious Sprague-Dawley rat | intravenous bolus, 100 nmol/kg | onset of sedation | ≤ 15 s |
